Results pooled from the literature.
± marks the error that the study gave. Converted amounts (≈) assume the structure as drawn.

With CCOC(=O)C(C)NC(=O)CN1C(=O)S/C(=C\c2ccc(F)cc2)C1=O (stereo not shown) the IC50 was greater than 10 µM (Leishmania donovani; parasite growth; 24 h, intracellular, amastigote).
For CC(C)=CCc1cc([C@@H]2CC(=O)c3ccc(O)c(CC=C(C)C)c3O2)c(O)c(CC=C(C)C)c1O, antibacterial activity read “inactive” (Enterococcus faecalis; ATCC 29212; concentration not given).
O=C(CN(CCNC(=O)OCC1c2ccccc2-c2ccccc21)C(=O)CCc1cn(Cc2ccccc2)nn1)Nc1ccc(I)cc1 — result for antibacterial activity: “inactive” (Bacillus subtilis, Staphylococcus aureus; MIC; including MRSA; up to 512 µg/mL).
The IC50 of Cc1cc2[nH]c(C(=O)NCc3cccs3)c(CN3CCCCC3)c2s1 is reported as greater than 10 µM (Giardia duodenalis; parasite growth; 48 h).
For CN(C)c1cc(CNCC(N)=O)c(O)c2c1C[C@H]1C[C@H]3[C@H](N(C)C)C(O)=C(C(N)=O)C(=O)[C@@]3(O)C(O)=C1C2=O, the MIC was 8 µg/mL (≈ 14.7 µM) (Enterococcus faecalis; JH2-2(pMV158), Tet L efflux).
With Oc1c(Br)cc(Br)c2nc3cc(C(F)(F)F)ccc3nc12 the MBC was 9.38 µM (≈ 3.96 µg/mL) (Enterococcus; Calgary Biofilm Device; VRE 700221; biofilm).
With CC/C(=C\c1ccc(OCC(=O)NC(C(=O)N2CCSCC2)c2ccccc2)cc1)[N+](=O)[O-] (stereo not shown) the inhibition was 77.9% (Leishmania donovani; parasite growth, MTT; 100 µM, 48 h, promastigote).
CN(C)c1cc(CN2CCOCC2)c(O)c2c1C[C@H]1C[C@H]3[C@H](N(C)C)C(O)=C(C(N)=O)C(=O)[C@@]3(O)C(O)=C1C2=O has an MIC of 2 µg/mL (≈ 3.59 µM) (Enterococcus faecalis; JH2-2(pMV158), Tet L efflux).
CC(C)(C)N/C=C/c1ccccc1 — result for activity: “inactive” (Schistosoma haematobium; motility; adults; up to 40 µM, 24 h).
The fold change of Fc1ccc2c(c1)c1nc3ccc(Br)cc3c-1cn2Cc1cn(-c2ccccc2I)nn1 is reported as -325 (Giardia duodenalis; UHPLC-Q-TOF-MS, item: PS(P-20:0/22:6); trophozoites; IC50, 0.2033 h; relative to: 0.25% DMSO).
With Cc1cc(O)c2c(c1)C(=O)c1cc3oc(=O)cc(-c4ccc(O)cc4)c3c(O)c1C2=O the inhibition zone was 8 mm (Klebsiella aerogenes; microbial growth, disc diffusion; 100 µg/disc).
For CNC1=C([N+](=O)[O-])C2(C(=O)Nc3ccc([N+](=O)[O-])cc32)C2=C(CCCC2=O)O1 (stereo not shown), the growth inhibition was 33.1% (Enterococcus faecalis; MTCC 439; 250 µg/mL, 24 h).
The IC50 of CCOC(=O)C(NC(=O)CN1C(=O)N/C(=C\c2ccc3c(c2)OCO3)C1=O)C(C)C (stereo not shown) is reported as greater than 10 µM (Leishmania major; parasite growth; 72 h, intracellular, amastigote).
The IC50 of Cc1cc2[nH]c(C(=O)NCCCN3CCCC3=O)c(CN3CCOCC3)c2s1 is reported as greater than 10 µM (Giardia duodenalis; parasite growth; 48 h).
CCOC(=O)C(CC)NC(=O)CN1C(=O)S/C(=C\c2ccc([N+](=O)[O-])cc2)C1=O (stereo not shown) has an IC50 of greater than 10 µM (Leishmania major; parasite growth; 72 h, intracellular, amastigote).
For O=S(=O)(O)CCCCCCCCCCCSC[C@H]1O[C@@H]2O[C@H]3[C@H](O)[C@@H](O)[C@@H](O[C@H]4[C@H](O)[C@@H](O)[C@@H](O[C@H]5[C@H](O)[C@@H](O)[C@@H](O[C@H]6[C@H](O)[C@@H](O)[C@@H](O[C@H]7[C@H](O)[C@@H](O)[C@@H](O[C@H]8[C@H](O)[C@@H](O)[C@@H](O[C@H]1[C@H](O)[C@H]2O)O[C@@H]8CSCCCCCCCCCCCS(=O)(=O)O)O[C@@H]7CSCCCCCCCCCCCS(=O)(=O)O)O[C@@H]6CSCCCCCCCCCCCS(=O)(=O)O)O[C@@H]5CSCCCCCCCCCCCS(=O)(=O)O)O[C@@H]4CSCCCCCCCCCCCS(=O)(=O)O)O[C@@H]3CSCCCCCCCCCCCS(=O)(=O)O, “AUC of mean lesion score” read 39.7 ± 25.1 (human alphaherpesvirus 2; 333, mouse, intravaginal HSV-2 infection; intravaginal, 0.03 mg per mouse, HEC gel, days 4 to 10 post-infection; direction not given).
CN(C)c1cc(CNC2CCCCC2)c(O)c2c1C[C@H]1C[C@H]3[C@H](N(C)C)C(O)=C(C(N)=O)C(=O)[C@@]3(O)C(O)=C1C2=O has an MIC of 1 µg/mL (≈ 1.76 µM) (Enterococcus faecalis; JH2-2(pMV158), Tet L efflux).
CCOC(=O)C(C)NC(=O)CN1C(=O)N/C(=C\c2ccc(C)cc2)C1=O (stereo not shown) has an IC50 of greater than 10 µM (Leishmania major; parasite growth; 24 h, intracellular, amastigote).
COC1C=COC2(C)Oc3c(C)c(O)c4c(c3C2=O)C2=NC3(CCN(CC(C)C)CC3)NC2=C(NC(=O)C(C)=CC=CC(C)C(O)C(C)C(O)C(C)C(OC(=O)c2cccnc2)C1C)C4=O (stereo not shown) gave an MBC of 0.05 µM (≈ 0.0455 µg/mL) (Mycobacteroides abscessus; ATCC 19977; 1-log kill, replicating cultures).
CC[C@H](C)[C@H](NC(=O)[C@H](CCC(N)=O)NC(=O)[C@H](Cc1ccccc1)NC(=O)[C@H](CO)NC(=O)[C@H](CS)NC(=O)[C@H](Cc1ccccc1)NC(=O)[C@H](C)NC(=O)[C@H](CCCCN)NC(=O)[C@H](CCCNC(=N)N)NC(=O)[C@H](CCCCN)NC(=O)[C@H](CC(C)C)NC(=O)[C@H](Cc1c[nH]cn1)NC(=O)[C@@H]1CCCN1C(=O)[C@H](CCC(N)=O)NC(=O)[C@H](CC(=O)O)NC(=O)[C@H](Cc1c[nH]cn1)NC(=O)[C@H](Cc1ccccc1)NC(=O)[C@@H]1CCCN1C(=O)[C@H](CS)NC(=O)[C@H](CC(N)=O)NC(=O)[C@H](CC(=O)O)NC(=O)[C@H](CC(C)C)NC(=O)[C@H](CC(N)=O)NC(=O)[C@@H]1CCCN1C(=O)[C@H](CCC(N)=O)NC(=O)[C@@H](NC(=O)[C@H](CCCCN)NC(=O)[C@@H](NC(=O)[C@H](CS)NC(=O)[C@@H](NC(=O)[C@@H](NC(=O)[C@H](CCCNC(=N)N)NC(=O)CN)[C@@H](C)O)[C@@H](C)O)[C@@H](C)O)[C@@H](C)O)C(=O)N[C@@H](Cc1ccc(O)cc1)C(=O)N[C@@H](C)C(=O)N[C@H](C(=O)N1CCC[C@H]1C(=O)N[C@@H](Cc1c[nH]c2ccccc12)C(=O)N[C@@H](CCC(N)=O)C(=O)NCC(=O)N[C@H](C(=O)N[C@@H](CCSC)C(=O)N[C@H](C(=O)N[C@@H](CC(C)C)C(=O)N[C@@H](CO)C(=O)N[C@@H](CCCCN)C(=O)N[C@@H](CO)C(=O)N[C@H](C(=O)N[C@@H](CS)C(=O)N[C@@H](CCC(N)=O)C(=O)N[C@@H](CC(=O)O)C(=O)N[C@@H](C)C(=O)O)[C@@H](C)O)[C@@H](C)O)[C@@H](C)O)C(C)C gave an inhibition of roughly 60% (Simian immunodeficiency virus; infectious virus yield; human PBMCs, mac239; 10 µM, AUC-based average).
CN(C)c1cc(CNCCC(C)(C)C)c(O)c2c1C[C@H]1C[C@H]3[C@H](N(C)C)C(O)=C(C(N)=O)C(=O)[C@@]3(O)C(O)=C1C2=O gave an MIC of 1 µg/mL (≈ 1.75 µM) (Enterococcus faecalis; microbial growth, broth dilution).
For NCC(=O)N[C@H](Cc1ccccc1)C(=O)N[C@@H](Cc1ccccc1)C(=O)N[C@@H](CC(=O)O)C(=O)O, neuron excitability read “increased” (Aplysia; evoked spikes, electrophysiology; isolated pleural-pedal ganglia; concentration not given).
CC1(CCCCCCCCCCCCCCOCCCOP(=O)(O)CO[C@H](CO)Cn2ccc(N)nc2=O)COC1 gave a selectivity index of greater than 172 (human alphaherpesvirus 2; HFF, G; relative to: CC50 over EC50).
The worm killing of COc1ccc(-c2nc(-c3ccccc3OC)[nH]c2-c2ccc(OC)cc2)cc1 is reported as 0% (Schistosoma mansoni; female worms; 25 µM).
For CCC(NC(=O)CN1C(=O)N/C(=C\c2ccc(C)cc2)C1=O)C(=O)OC (stereo not shown), the IC50 was greater than 100 µM (Leishmania major; parasite growth, resazurin; promastigote).
c1ccc(CN2CCOCCOCCN(CCCCCCCCCCCCCCN3CCOCCOCCN(CCCCCCCCCCCCCCN4CCOCCOCCN(Cc5ccccc5)CCOCCOCC4)CCOCCOCC3)CCOCCOCC2)cc1 gave a fold enhancement of 4 fold (Escherichia coli; tetracycline MIC, checkerboard; tetracycline-resistant (pBR322); 1/2 MIC, added: tetracycline; relative to: MIC alone over combination).
For COc1cc(OC)c2c(c1)C(=O)c1cc3oc(=O)cc(C)c3c(O)c1C2=O, “inhibition zone diameter” read less than 8 mm (Klebsiella aerogenes; 100 µg/disc).
CC(C)=CCc1c(O)ccc2c1O[C@H]1c3cc4c(cc3OC[C@@H]21)OC(C)(C)C=C4: antibacterial activity “inactive” (Enterococcus faecalis; ATCC 29212; concentration not given).
The IC50 of CC(=O)Nc1ccc(NC(=O)c2[nH]c3cc(C)sc3c2CN2CCOCC2)cc1 is reported as greater than 10 µM (Giardia duodenalis; parasite growth; 48 h).
The IC50 of CCOC(=O)C(CC)NC(=O)CN1C(=O)S/C(=C\c2ccc(C)cc2)C1=O (stereo not shown) is reported as 5.29 µM (Leishmania major; parasite growth; 24 h, intracellular, amastigote).
CC1(CCCCCCCCCCCCOCCCOP(=O)(O)CO[C@H](CO)Cn2ccc(N)nc2=O)COC1 gave a selectivity index of greater than 172 (human alphaherpesvirus 2; HFF, G; relative to: CC50 over EC50).
The MIC of CN(C)c1cc(CNCC2CCCCC2)c(O)c2c1C[C@H]1C[C@H]3[C@H](N(C)C)C(O)=C(C(N)=O)C(=O)[C@@]3(O)C(O)=C1C2=O is reported as 1 µg/mL (≈ 1.72 µM) (Enterococcus faecalis; JH2-2(pMV158), Tet L efflux).
For Cc1cc2[nH]c(C(=O)NCCCN3CCOCC3)c(CN(C)C)c2s1, the IC50 was greater than 10 µM (Giardia duodenalis; parasite growth; 48 h).
With CCOC(=O)CNC(=O)CN1C(=O)S/C(=C\c2ccc(OC)c(O)c2)C1=O the IC50 was 9.99 µM (Leishmania major; parasite growth; 24 h, intracellular, amastigote).
Under “inhibition zone diameter”, CC(=O)[O-].O.O.O.O.[Co+2].[O-]c1ccc(Br)cc1C=NCCN1CCOCC1 is recorded as 15 mm (Mucor indicus; 20 µL of 100 µM per disc).
The IC50 of COc1ccc(NC(=O)c2[nH]c3cc(C)sc3c2CN2CCOCC2)cc1 is reported as greater than 10 µM (Giardia duodenalis; parasite growth; 48 h).
The inhibition zone of Cc1cc(O)c2c(c1)C(=O)c1cc3oc(=O)cc(-c4ccc(Cl)cc4)c3c(O)c1C2=O is reported as 10 mm (Klebsiella aerogenes; microbial growth, disc diffusion; 100 µg/disc).

Excerpt of the above:
CC(C)=CCc1c(O)ccc2c1O[C@H]1c3cc4c(cc3OC[C@@H]21)OC(C)(C)C=C4: antibacterial activity “inactive” (Enterococcus faecalis; ATCC 29212; concentration not given).
c1ccc(CN2CCOCCOCCN(CCCCCCCCCCCCCCN3CCOCCOCCN(CCCCCCCCCCCCCCN4CCOCCOCCN(Cc5ccccc5)CCOCCOCC4)CCOCCOCC3)CCOCCOCC2)cc1 gave a fold enhancement of 4 fold (Escherichia coli; tetracycline MIC, checkerboard; tetracycline-resistant (pBR322); 1/2 MIC, added: tetracycline; relative to: MIC alone over combination).
